Experimental data of several laboratories.
Every numbered part comes from another study and shows a few of its results, in no order.

Set 1 — method: protein-binding microarray; form: double-stranded DNA, one strand shown; matrix: in vitro; concentration: not given; direction: higher = stronger binding
Target: Transcription factor Sp1 (SP1, Homo sapiens, UniProt P08047, residues 1-785, full length assumed)
UniProt P08047, sequence (whole entry, looked up): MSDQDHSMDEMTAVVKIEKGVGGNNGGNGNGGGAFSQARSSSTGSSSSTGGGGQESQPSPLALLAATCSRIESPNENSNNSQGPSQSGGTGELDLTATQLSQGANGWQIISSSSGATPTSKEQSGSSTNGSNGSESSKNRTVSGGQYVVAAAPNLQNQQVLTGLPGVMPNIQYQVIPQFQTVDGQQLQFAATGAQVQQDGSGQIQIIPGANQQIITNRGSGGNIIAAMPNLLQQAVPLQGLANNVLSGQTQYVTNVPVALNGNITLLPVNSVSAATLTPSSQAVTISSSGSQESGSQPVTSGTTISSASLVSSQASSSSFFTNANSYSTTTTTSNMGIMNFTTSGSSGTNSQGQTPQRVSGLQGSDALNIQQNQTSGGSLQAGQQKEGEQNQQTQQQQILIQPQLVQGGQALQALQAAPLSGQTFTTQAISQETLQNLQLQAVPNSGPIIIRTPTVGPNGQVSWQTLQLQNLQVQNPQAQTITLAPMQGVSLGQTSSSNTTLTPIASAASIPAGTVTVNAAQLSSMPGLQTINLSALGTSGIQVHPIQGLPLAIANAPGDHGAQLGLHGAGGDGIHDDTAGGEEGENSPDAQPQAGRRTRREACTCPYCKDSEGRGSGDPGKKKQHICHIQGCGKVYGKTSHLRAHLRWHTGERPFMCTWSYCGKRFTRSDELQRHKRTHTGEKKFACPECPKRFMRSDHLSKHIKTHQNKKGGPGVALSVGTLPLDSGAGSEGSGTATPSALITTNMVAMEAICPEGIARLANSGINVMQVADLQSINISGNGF
Notes: k-mer, scored over probes, only values ≥0.25
Oligonucleotide	E-score
TACATGTA	0.29
GTGTACAA	0.27
ACAATACC	0.311
ACGGGGCG	0.365
ATTAACAC	0.288
GTTTGGTA	0.296
GGGTAAAC	0.256
AAACCCCG	0.354
ACACCCCC	0.334
ATGACACC	0.253
CCCTCGCC	0.331
AAGTGGGC	0.303
CCCACCCA	0.473
ATACAATA	0.265
CGTTAACG	0.268
AGTTACAG	0.264
AGGGGTAT	0.311
CGAGGGGA	0.284
CGCCCCCC	0.439
ATGGGGAG	0.351
ATTATTCC	0.252
CCTCCCCG	0.439
CCACCCCA	0.473

Set 2 — method: EMSA with sequencing; form: double-stranded DNA, one strand shown; matrix: in vitro; concentration: 10 and 20 nM; reference: negative control set to 0; direction: higher = stronger binding
Target: Hepatocyte nuclear factor 3-alpha (Foxa1, Mus musculus, UniProt P35582, residues 1-468, full length assumed)
UniProt P35582, sequence (whole entry, looked up): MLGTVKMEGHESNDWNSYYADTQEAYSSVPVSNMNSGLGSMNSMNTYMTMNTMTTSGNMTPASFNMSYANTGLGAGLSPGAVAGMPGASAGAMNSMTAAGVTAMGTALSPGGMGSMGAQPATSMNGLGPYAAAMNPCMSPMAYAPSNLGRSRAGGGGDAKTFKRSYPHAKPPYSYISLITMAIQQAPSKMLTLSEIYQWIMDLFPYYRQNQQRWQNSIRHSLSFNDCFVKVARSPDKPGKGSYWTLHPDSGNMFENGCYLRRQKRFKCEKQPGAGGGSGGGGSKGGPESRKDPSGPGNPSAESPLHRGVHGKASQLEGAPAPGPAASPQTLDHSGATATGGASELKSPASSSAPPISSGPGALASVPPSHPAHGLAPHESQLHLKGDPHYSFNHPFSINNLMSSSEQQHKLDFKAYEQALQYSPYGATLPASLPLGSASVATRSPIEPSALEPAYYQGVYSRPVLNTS
Notes: whole designed probe, mean of two concentrations, ends assumed
Oligonucleotide	normalised bound fraction [ratio]
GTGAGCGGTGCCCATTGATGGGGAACAAAACCTTCCTATCCCATGGTTATAAAGGAATCACTCATATTTTCTAAATGTGCTTTTTATATTTGTTTTAAACATTTAAAATCTTTGATCCAAGAGGACTTTTTCTTGGTATGTAAAGTAAGGTACTAATTTATCAAGTGGCTGTCAGTCGTCCTAACACCTTTTATCAAAAAGTCCCCCTTTATGGTTAGGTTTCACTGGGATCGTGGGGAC	0.242
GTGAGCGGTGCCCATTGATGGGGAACCAAACTTTGCTGTAGTTTAACCCTGTAAATCATTGGAAAGTTTATCAAATACCTTAAATGCTTTTGCAACTTATTCATTCCCTGGTTATTTGGGTAAACAAGTACAGCGCACTGTTGGATGAACTTTATCTGAACTATTATCACTGAGCTGTTGGGGGAAATTCCGTCTTTTCCAAATCTGTACTGCGATATATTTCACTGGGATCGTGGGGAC	0.188
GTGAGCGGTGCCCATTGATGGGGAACTCCTTTATCCCAACATGTTTATACAGACAAAACCAGGTTAAAATCGACACAAGGTCAACTTGAAATGGGGAAAGAGGAAGGTGAGCTCACAAAATAAACATGAAGTCTTGTGTACAAGCATCTGCAGAAGAGTTCAGCCTCACCACTTGGGTAATGCTGTTGGAATGTGGTCTGGGTTCACTGTATTTGAATGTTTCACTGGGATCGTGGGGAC	0.336
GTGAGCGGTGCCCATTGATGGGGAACGACATGTTAAGGCTTGTTCTATTTATTAGAAAATATATAAAGAGTTCTTGGCTTAAGAACTCTTCTGGCTATCAGCTCCCTGATGTGAAAAAAGTAAATAGCAAGGGGTAGCATGGAGTCTTACTCCCGTGTGACAGACAGCTTAAGAAAGACAATTGGACATCATGTGACTACATGATTCAAGCTAAAGTCCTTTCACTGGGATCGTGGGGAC	0.234
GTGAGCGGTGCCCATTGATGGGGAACATCTTCCCCCTCTTCCTTGCCCCACCAGCTCACCTTCCCGGGTATCTGCAAATAAGGAAATTAATATAAGCCGGCATTCGTTAACCCTCTTCTGGCGCAAACTGCTGTTTACTTTGGATGAATCATGGTCCTTTGGCGACGCCAGGCTCCGGGAGAGCAAAGCACCGTGTCAGGGCCATGATCCGGGGTGGCCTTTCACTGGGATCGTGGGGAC	0.38
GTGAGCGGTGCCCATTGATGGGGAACATCTTCCCCCTCTTCCTTGCCCCACCAGCTCACCTTCCCGGGTTATTTGCACAAAGGAAAATAAATAAAGCCGGCATTCGTTAACGCAGTTCACGCGCATACTGCTGTTTGCTCTGCATCTAACATGGTCCTTACGCGACGCCAGGCTCCGGGAGAGCAAAGCACCGTGTCAGGCGCATGATCCGGGGTGGCCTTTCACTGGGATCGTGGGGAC	0.389

Set 3 — method: protein binding microarray; form: double-stranded DNA, one strand shown; matrix: in vitro; concentration: not given; reference: not given; direction: higher = stronger binding
Target: Histone acetyltransferase KAT6A, winged helix 2, GST fusion (KAT6A, Homo sapiens, UniProt Q92794, residues 85-181)
Notes: 8-mer, flanks averaged, mean of 2 arrays, mostly near background
Residues (chain): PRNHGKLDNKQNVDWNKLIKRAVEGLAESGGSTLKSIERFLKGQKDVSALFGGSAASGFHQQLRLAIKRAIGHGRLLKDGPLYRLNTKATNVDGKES
Oligonucleotide	E-score
GCTGACAA	0.17
ATGATAAT	0.0385
CAAAAATG	0.0237
GAAATGCA	-0.0341
ACACCTGG	-0.0131
GCACAGGC	0.079
ACATGAGA	0.0391
ACGCCCAC	0.0755
AAAACCTA	0.0849
AGCCTCCA	0.0656
CCGGTTTA	-0.00937
TGATAAAA	-0.0164
AGGTGACA	0.0492
GACCCAGC	-0.0591
ACGGCATC	0.0672
AGCCATCC	0.0722

Set 4 — method: RNA Bind-n-Seq; form: RNA; matrix: in vitro; concentration: 365 nM; reference: no-protein control; direction: higher = stronger binding
Target: RNA binding protein fox-1 homolog 2, RRM domain, GST-SBP tag (RBFOX2, Homo sapiens, UniProt O43251-10, residues 100-194)
Notes: natural RNA segment, single round, ends assumed
Construct (chain): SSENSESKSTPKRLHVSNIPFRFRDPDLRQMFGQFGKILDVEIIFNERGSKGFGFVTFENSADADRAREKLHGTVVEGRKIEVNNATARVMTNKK
Oligonucleotide	RBNS enrichment (R)
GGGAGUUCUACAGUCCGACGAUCUCCUGCGAGCUCCUUGGGUCCUGCAAUCUCCAGGGCUGCCCCUGUAGGUUGCUUAAAAGGGACAGUAUUCUCAGUGCUCUCCUACCCCACCUCAUGCCUGGCCCCCCUCCUGGAAUUCUCGGGUGCCAA	0.572
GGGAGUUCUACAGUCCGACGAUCUGAGGGUUGUGAUCAGAGGUCCCAUCUCUUUACAGUGUCACUUCAAUCUGUUUGUGUUUCUGAGCCUGGUUCCUCCAAGACACAGGAAUGAAGUGGGGCCACAGAUUUAGUGGAAUUCUCGGGUGCCAA	0.515
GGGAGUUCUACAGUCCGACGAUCUUCACUCUGACACUGUCUUAUUCUGCUGCCACAAUGCAAGCAUAGUUUGUUAUUUUUGUUACUGCCUUUUUUGAGAGAUUAUGUAUCUAUAUAGCUACCUGUCUAGAUCUUGGAAUUCUCGGGUGCCAA	0.654
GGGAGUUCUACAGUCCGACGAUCCACUUGUACAUAACUAUACAGUAGUGUCCAGAAUGUUCAGACAUUCGGAGUGUACAUAAAACAGAAAAAAUCUUCAUGUAUUUUUAUUAAAUAUAACAAUGUCUGAGUUUUGGAAUUCUCGGGUGCCAA	0.48
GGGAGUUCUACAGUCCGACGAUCUGUGCCUUGUCUCUACUCCCUCUCUUGGAUCUGGGGAGGAGGGGCAGAGACCUGGGACUCUGUAUUUCUAUAGUUCUCCUGGCAGAGCCUUUGAGAAUGGGGAGAAACAGUGGAAUUCUCGGGUGCCAA	0.827
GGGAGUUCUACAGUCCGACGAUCGAUUUCAGUACAUGGAUUUAAAAGGCAACAAUCCAUCACUGGUUUGUGUGUUUUUGGUUAAGUUUCUGGAAGAAUACAAUGCUUUUAUAUUGGAAGUAUAAGUUUUGAGUUGGAAUUCUCGGGUGCCAA	0.513
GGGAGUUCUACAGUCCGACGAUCAGCCACGCCACUCUUACUCAGUUCAGUGGGUGUGCUUGCGUGGUAGGAUGUGGUGCAGCCCUCUCUACGCUCUUCUAUUUUUGGUAUAUUUCCUAUCUAACCUUCAAAUAUGGAAUUCUCGGGUGCCAA	0.574
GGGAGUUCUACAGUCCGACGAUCUGCCUCAGUUGAGCAUCUAGGAAGUAUUAAAACUGUGAAGCUUUCUCAGUGCACUUUGAACCUGGAAAACAAUCCCAACAGGCCCGUGGGACCAUGACUUAGGGAGGUGGUGGAAUUCUCGGGUGCCAA	0.494
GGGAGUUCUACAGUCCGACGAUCAAUUUGAAAGCUUUCAUGCUGUUAGCCCCUGAUGAAAUUCUCAGCAUUAACUGGCCAGCUCCUCUGAUUUCUGCAGCAUCGCAACAGGUUCGAAGAUGGGUUGUGGCUGGUGGAAUUCUCGGGUGCCAA	1.53
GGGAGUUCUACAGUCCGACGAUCCACCCAGAGGUGGCCCUCCCAGGCUGGUAUUUAUCUGCAAGGUUGUAGUCAAGAGGUUUUUCUCCCCGCUUUUUGUUUUUAAGCUUCUAGACACUCCUUGAAAUGUGUGUUGGAAUUCUCGGGUGCCAA	1.42
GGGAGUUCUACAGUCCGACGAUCCCUGCCACCUGGCAGGAGGCCCACUCACUGCCCAAGUCAUGGCAACAGGCUGGAGCAGCCCAGGAGAUGGGCCUAAAAUGUUCUGGAUCCCUUGGGUCCUAGUGUUAUGUUGGAAUUCUCGGGUGCCAA	0.186
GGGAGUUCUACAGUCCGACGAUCUAAAAAUGGACAGCCAAUGUGUUCAGCCGCUCUGGCCUGUACCCCCUGGGGCCUCUAGUGUAUUGUAUUAUAUUUCUGUGGAAAGUCAUGUUUAGUCAAAUUGGAAUCCAUGGAAUUCUCGGGUGCCAA	0.638

A few entries again (set 3):
Oligonucleotide	E-score
ACGGCATC	0.0672
GAAATGCA	-0.0341
ACACCTGG	-0.0131
GCACAGGC	0.079
GCTGACAA	0.17
